Published values from different studies.
Values joined by “and” are separate records of one study, mostly repeats; a detail may differ. Numbers after ± are the reported error.
Oprd1: Delta-type opioid receptor (Oprd1, Rattus norvegicus, UniProt P33533)
Chain of UniProt P33533 (whole entry, looked up): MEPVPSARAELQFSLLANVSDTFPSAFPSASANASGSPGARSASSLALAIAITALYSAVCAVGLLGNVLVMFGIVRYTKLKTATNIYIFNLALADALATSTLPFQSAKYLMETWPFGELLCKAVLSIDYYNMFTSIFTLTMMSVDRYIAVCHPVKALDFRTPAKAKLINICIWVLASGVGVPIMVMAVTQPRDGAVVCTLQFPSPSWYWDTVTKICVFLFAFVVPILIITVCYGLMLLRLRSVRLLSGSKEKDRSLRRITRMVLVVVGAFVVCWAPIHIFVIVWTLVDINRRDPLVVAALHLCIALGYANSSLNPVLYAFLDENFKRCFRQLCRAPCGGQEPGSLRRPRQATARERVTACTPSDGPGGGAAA
CHRM2: Muscarinic acetylcholine receptor M2 (CHRM2, Homo sapiens, UniProt P08172)
Chain of UniProt A5GZW8 (whole entry, looked up): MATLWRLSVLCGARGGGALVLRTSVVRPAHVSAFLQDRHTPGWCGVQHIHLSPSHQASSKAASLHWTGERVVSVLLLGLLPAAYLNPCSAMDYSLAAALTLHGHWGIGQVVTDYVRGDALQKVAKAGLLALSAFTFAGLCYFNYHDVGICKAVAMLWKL
Chain of UniProt Q9ULW8 (whole entry, looked up): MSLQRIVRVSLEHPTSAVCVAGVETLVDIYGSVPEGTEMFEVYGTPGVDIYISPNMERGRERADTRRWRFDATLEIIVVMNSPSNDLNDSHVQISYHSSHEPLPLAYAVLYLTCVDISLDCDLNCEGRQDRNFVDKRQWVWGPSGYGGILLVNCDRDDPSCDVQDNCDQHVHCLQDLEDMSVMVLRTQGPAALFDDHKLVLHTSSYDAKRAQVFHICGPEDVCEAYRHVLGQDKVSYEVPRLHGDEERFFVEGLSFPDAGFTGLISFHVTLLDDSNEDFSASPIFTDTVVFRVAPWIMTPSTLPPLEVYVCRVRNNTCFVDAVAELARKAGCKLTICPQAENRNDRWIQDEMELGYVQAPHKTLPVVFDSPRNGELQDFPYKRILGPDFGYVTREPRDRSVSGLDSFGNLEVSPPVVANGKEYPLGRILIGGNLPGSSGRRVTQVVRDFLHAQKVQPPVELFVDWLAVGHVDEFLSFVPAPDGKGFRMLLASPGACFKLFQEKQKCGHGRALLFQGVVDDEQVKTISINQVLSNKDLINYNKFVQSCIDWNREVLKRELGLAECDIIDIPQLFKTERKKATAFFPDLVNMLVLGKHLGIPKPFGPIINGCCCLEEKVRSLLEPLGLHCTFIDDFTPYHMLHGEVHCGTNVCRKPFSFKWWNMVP
Chain of UniProt D0VWV4 (whole entry, looked up): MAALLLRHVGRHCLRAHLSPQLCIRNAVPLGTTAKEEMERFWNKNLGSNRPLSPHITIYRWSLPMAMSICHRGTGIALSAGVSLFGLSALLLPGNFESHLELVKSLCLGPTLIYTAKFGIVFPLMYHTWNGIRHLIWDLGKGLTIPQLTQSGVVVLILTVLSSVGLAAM
Chain of UniProt P08172 (whole entry, looked up): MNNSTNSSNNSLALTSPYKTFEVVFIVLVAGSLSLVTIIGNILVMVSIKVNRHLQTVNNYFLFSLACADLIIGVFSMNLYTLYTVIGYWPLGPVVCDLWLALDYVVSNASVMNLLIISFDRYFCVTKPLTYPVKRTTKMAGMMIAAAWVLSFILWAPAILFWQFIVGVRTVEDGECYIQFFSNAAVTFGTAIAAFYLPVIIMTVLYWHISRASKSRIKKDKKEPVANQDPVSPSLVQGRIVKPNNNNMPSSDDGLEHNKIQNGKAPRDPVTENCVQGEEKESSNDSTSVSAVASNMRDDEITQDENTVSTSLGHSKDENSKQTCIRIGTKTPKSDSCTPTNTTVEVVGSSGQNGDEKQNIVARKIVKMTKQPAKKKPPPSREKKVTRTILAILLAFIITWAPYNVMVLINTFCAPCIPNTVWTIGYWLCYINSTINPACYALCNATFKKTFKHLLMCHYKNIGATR
Chain of UniProt P10721 (whole entry, unmodified, looked up): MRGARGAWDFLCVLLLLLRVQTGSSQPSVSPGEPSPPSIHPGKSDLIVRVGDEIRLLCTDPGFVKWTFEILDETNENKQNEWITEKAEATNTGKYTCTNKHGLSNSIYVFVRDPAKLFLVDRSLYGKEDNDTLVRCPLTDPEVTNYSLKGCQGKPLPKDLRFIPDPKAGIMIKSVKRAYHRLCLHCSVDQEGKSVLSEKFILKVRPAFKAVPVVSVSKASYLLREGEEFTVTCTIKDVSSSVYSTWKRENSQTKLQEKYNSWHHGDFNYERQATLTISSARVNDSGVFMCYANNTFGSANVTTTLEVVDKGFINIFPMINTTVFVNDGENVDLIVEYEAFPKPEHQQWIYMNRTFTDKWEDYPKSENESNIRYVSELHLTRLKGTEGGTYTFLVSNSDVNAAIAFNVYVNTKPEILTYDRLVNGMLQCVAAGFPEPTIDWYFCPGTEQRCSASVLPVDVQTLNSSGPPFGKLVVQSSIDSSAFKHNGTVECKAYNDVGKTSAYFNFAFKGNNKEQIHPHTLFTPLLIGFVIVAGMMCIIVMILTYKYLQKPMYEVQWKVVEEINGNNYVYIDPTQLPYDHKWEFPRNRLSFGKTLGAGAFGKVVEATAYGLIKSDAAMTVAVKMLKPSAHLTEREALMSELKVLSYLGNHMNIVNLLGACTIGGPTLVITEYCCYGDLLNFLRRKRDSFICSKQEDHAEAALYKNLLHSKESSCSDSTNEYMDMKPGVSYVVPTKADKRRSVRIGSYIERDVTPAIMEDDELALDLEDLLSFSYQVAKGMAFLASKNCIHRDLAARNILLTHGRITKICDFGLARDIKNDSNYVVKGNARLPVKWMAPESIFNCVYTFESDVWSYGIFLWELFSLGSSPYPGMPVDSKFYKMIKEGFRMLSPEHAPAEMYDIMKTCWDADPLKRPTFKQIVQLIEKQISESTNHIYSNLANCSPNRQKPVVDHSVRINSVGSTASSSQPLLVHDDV
Chain of UniProt Q007T0 (whole entry, looked up): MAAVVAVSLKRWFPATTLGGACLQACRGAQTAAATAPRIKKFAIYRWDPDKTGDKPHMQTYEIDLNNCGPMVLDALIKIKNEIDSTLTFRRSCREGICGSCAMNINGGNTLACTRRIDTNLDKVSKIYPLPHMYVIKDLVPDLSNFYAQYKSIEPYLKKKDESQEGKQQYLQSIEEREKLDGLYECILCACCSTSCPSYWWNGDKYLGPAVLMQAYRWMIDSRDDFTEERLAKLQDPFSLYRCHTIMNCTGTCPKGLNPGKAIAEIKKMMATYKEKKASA
Chain of UniProt Q13976 (whole entry, looked up): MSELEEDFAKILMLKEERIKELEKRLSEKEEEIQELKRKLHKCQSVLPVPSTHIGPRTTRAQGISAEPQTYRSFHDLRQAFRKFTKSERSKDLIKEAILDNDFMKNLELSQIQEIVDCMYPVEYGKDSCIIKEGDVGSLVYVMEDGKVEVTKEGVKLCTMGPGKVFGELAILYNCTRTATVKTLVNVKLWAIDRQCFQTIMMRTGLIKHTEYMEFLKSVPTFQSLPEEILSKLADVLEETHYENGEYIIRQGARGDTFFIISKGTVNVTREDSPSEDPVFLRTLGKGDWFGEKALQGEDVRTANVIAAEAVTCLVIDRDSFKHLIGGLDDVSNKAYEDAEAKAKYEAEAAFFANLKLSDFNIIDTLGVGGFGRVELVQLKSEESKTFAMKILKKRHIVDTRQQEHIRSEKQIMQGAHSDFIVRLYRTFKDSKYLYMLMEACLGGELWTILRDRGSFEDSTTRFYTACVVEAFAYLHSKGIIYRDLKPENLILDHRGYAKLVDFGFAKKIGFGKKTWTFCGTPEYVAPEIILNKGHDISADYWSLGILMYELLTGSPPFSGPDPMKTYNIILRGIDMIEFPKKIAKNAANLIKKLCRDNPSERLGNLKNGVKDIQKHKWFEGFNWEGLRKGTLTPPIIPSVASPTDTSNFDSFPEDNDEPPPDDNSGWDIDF
Chain of UniProt P43235 (whole entry, looked up): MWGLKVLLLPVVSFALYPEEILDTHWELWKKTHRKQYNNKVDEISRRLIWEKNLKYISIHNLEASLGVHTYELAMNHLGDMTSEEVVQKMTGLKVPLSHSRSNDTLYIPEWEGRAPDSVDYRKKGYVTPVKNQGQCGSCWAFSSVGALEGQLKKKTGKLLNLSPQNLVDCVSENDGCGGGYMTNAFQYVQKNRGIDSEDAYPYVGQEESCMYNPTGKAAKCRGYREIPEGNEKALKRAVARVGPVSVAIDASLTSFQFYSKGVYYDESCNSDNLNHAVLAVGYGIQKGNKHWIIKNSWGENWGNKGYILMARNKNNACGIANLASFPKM
Chain of UniProt P49760 (whole entry, looked up): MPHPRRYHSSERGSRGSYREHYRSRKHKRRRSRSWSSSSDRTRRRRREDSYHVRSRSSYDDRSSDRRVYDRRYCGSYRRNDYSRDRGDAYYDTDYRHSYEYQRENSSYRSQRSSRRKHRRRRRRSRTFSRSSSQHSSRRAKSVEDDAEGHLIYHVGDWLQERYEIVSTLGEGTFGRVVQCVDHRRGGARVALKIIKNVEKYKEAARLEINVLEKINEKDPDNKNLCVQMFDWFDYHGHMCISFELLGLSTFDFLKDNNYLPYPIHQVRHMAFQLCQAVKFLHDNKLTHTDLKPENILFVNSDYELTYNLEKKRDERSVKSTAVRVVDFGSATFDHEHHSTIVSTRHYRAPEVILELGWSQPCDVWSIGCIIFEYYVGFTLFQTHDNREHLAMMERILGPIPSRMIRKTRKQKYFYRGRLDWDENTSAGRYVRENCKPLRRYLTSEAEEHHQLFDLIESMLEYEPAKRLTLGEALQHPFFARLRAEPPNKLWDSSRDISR
Chain of UniProt P10144 (whole entry, looked up): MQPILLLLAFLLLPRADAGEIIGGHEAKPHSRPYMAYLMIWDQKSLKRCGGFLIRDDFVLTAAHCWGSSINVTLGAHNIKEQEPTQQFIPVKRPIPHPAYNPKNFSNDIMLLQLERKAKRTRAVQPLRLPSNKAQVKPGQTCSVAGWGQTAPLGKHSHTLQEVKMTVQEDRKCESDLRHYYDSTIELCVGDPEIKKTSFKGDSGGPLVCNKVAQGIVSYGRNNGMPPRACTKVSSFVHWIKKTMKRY
Chain of UniProt P23895 (whole entry, looked up): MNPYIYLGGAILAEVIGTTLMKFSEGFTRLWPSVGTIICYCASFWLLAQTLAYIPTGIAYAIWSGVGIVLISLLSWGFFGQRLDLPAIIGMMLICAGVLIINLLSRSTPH

| SMILES | target | test | test system | setting | scale | endpoint | result |
| --- | --- | --- | --- | --- | --- | --- | --- |
| CON(C(=O)c1cn(C)nc1C(F)F)C(C)Cc1c(Cl)cc(Cl)cc1Cl (stereo not drawn) | SDHD/SDHC/SDHB (Sus scrofa, UniProt A5GZW8+D0VWV4+Q007T0) | enzyme activity, inhibitor, DCIP reduction | pig | 0.3 µM, together with: DCIP 120 µM |  | reaction velocity | 0.0149 µM/s and 0.0147 µM/s |
| O=C(N[C@@H]1c2ccccc2C[C@H]1N1CCCC1)c1ccc(-c2ccnc3[nH]ccc23)nc1 | PRKG1 (Homo sapiens, UniProt Q13976) | binding, competition with immobilised ligand |  | 3 µM |  | remaining binding | 3.1% |
| C[N+](C)(C)CCCCCNc1ccc([N+](=O)[O-])c2nonc12 | emrE (Escherichia coli, UniProt P23895) | substrate, proteoliposome transport |  | 500 µM internal, pH 7.5 |  | transport half-time | ~12 s |
| COc1ccccc1-c1n[nH]c2nc(N[C@H]3CC[C@H](NS(=O)(=O)CC(C)C)CC3)ncc12 | cdc2-related kinase 12 (Leishmania donovani, UniProt A0A3S7WQK2) | bead pull-down competition | Leishmania donovani extract | 10 µM | reference: vehicle | remaining binding | 13% |
| CC(C)[C@H]1NC(=O)C[C@H]2/C=C/CCSSC[C@@H](NC1=O)C(=O)N[C@H](Cc1cccc3ccccc13)C(=O)NCC(=O)O2 | EPHA8 (Homo sapiens, UniProt P29322) | enzyme activity, inhibitor |  | 10 µM |  | inhibition | 7.7% |
| C[C@@H](O)[C@@H]1CN([C@@H](CC2CCCCC2)CN2CCC[C@H]2CN2CCNC[C@@H]2CO)CCN1CCc1ccc(Cl)c(Cl)c1 | Oprd1 | radioligand binding | rat brain membranes | 500 nM, pH 7.5, 25 °C, together with: 2 nM [3H]DPDPE |  | remaining binding | 91.7% |
| CCOC(=O)[C@@H]1Cc2c(cc([N+](=O)[O-])cc2[N+](=O)[O-])[C@H](O)[C@]12C(=O)Nc1ccc(Br)cc12 | KIT (Homo sapiens, UniProt P10721, T670I/V559D) | binding, competition with immobilised ligand |  | 0.1 µM |  | remaining binding | 95% |
| CN(C)[C@H]1C[C@@]23CC[C@@]4(O2)C(=CC[C@]2(C)[C@@H](c5ccc6ccncc6c5)CC[C@H]24)C=C3[C@@H](O)[C@@H]1O | MELK (Homo sapiens, UniProt Q14680) | ATP probe labelling, inhibitor, KiNativ profiling |  | 0.1 µM |  | inhibition | -4.4% |
| CC[C@H](C)[C@H](NC(C)=O)C(=O)N[C@@H](CCC(=O)O)C(=O)N1CCC[C@H]1C(=O)NC(CS(=O)(=O)O)P(=O)(Oc1ccccc1)c1ccccc1 (stereo partly drawn) | Granzyme B (GZMB, Homo sapiens, UniProt P10144) | enzyme activity, inhibitor, FRET |  |  |  | kinact/KI | 138000 M⁻¹ s⁻¹ |
| Cc1cc(-c2ccc3ccccc3c2)nnc1NCCN1CCN(C)CC1 | CHRM2 | antagonist |  | 10000 nM | reference: control | activity | 21% |
| Cc1ncsc1-c1ccc([C@H](C)NC(=O)[C@@H]2C[C@@H](O)CN2C(=O)[C@@H](NC(=O)CN2CCC(CN3CCN(CCC(=O)N4CCN(c5ncc(-c6cc(NC(=O)c7ccc(F)cc7C(F)(F)F)c(N7C[C@@H](C)N(C)[C@@H](C)C7)cc6F)cn5)CC4)CC3)CC2)C(C)(C)C)cc1 | WD repeat protein WDS (Spodoptera frugiperda, UniProt A0A2H1VC02) | degrader, targeted LC-MS | Sf9 | concentration not given, together with: bortezomib |  | protein level | 103% and 105% and 107% and 137% |
| CCCC[C@H]1CNCCN1C[C@@H]1CCCN1C[C@@H](Cc1ccc2ccccc2c1)N1CCN(CCCC2CCCC2)[C@H]([C@H](C)CC)C1 | Oprd1 | radioligand binding | rat brain membranes | 500 nM, pH 7.5, 25 °C, together with: 2 nM [3H]DPDPE |  | remaining binding | 92% |
| CS(C)(=O)=Nc1ccc(-c2ccc(-c3nc4cc(O[C@@H]5CO[C@H]6[C@@H]5OC[C@H]6O)[nH]c4cc3F)cc2)cc1 | CLK2 (Homo sapiens, UniProt P49760) | enzyme activity, inhibitor |  | 10 µM |  | inhibition | 3% |
| N[C@H](Cc1ccccc1)P(=O)(O)O | Phenylalanine/tyrosine ammonia-lyase (PAL, Rhodotorula toruloides, UniProt P11544) | inhibitor |  | 200 µM, together with: L-Phe 5 mM |  | reaction rate reduction | 40% |
| C#CCCCCOc1ccc2c(c1)CCCN2C(=O)CCl | ECE1 (Homo sapiens, UniProt P42892) | mass spectrometry profiling | H460 cell lysate | 100 µM over 10 µM, UniProt P42892 | reference: high over low concentration | reactivity ratio | 0.93 |
| N[C@H](C(=O)N1CCCC1)C1CCN(c2nccc3c(-c4ncc(Cl)cc4Cl)cccc23)CC1 | PADI3 (Homo sapiens, UniProt Q9ULW8) | enzyme activity |  | 0.03932 µM, together with: Ca2+ 0.25 mM |  | kcat | 0.0892 s⁻¹ and 0.0823 s⁻¹ |
| CN(C)c1ncnc2c1ncn2[C@@H]1O[C@H](CO)[C@@H](NC(=O)[C@@H](N)CSC(c2ccccc2)c2ccccc2)[C@H]1O | Puromycin-sensitive aminopeptidase (Homo sapiens, UniProt P55786) | enzyme activity, fluorescence |  | together with: Ala-4-MNA substrate | reference: APN IC50 over PSA IC50 | selectivity ratio | 57 fold |
| CCc1nnc(-c2c(OC)cc(-c3cnc4cc(-c5cnn(C)c5)ccn34)cc2OC)o1 | ADRA1A (Homo sapiens, UniProt P35348) | antagonist radioligand, radioligand binding |  | 10 µM, SafetyScreen44 alpha 1 A mean | lower = stronger displacement | remaining binding | 58.9% |
| Cc1cc(Nc2nc(C[C@@]3(C(=O)O)CCN(Cc4cccc(Cl)c4F)[C@H](C)C3)cc(C)c2F)[nH]n1 | CHRM2 | agonist |  | 10 µM |  | activation | -0.14% |
| O=C(O)c1ccccc1/C=N/Nc1nc(-c2ccccc2Cl)cs1 | AKT1 (Homo sapiens, UniProt P31749) | enzyme activity, inhibitor |  | 1 µM |  | inhibition | 0.85% |
| OB(O)c1cnn(-c2cc(Cl)ncn2)c1 | Trypsin (Sus scrofa, UniProt P00761) |  |  |  | reference: Ki trypsin over Ki AmpC | selectivity ratio | 131000 |
| C[C@H](NCc1ccc(-c2ccc(C(F)(F)F)cc2)cc1)C(N)=O | Adra1b (Rattus norvegicus, UniProt P15823) | radioligand binding, SafetyScreen panel |  | 1 µM, species rat, together with: 0.25 nM [3H]Prazosin |  | inhibition | 2% |
| O=C1NC(=O)c2c1c1cc(F)c[n+]3c1c1c2c2cc(O)ccc2[n]1[Ru-4]312([N]=C=S)[S+]3CC[S+]1CC[S+]2CC3 (stereo not drawn) | KIT (Homo sapiens, UniProt P10721, D816V) | enzyme activity |  | 100 nM, human enzyme, together with: 10 µM ATP | reference: untreated | remaining activity | 91% |
| Cc1nc2ccc(-c3ccc(OC(F)(F)F)cc3)cc2c(O)c1C#N | PFF0160c (Plasmodium falciparum, UniProt Q08210, E182D) | enzyme activity, DCIP colorimetric |  |  | reference: E182D mutant over wild type | IC50 ratio | 0.7 |
| CC(C)CC(O)(CC(C)C)c1cn(C(=O)N2CCCC2)nn1 | Palmitoyl-protein thioesterase ABHD10, mitochondrial (Mus musculus, UniProt Q6PE15) | probe labelling, inhibitor, competitive ABPP-SILAC, refers to: Abhd10 | mouse T cells | concentration not given, 4 h, in situ, protein level | reference: treated over DMSO, lower = more inhibition | SILAC ratio | 1.4 |
| Cc1ccc(N2CC3CCC(C2)N3C)cc1C(=O)N[C@H](C)c1cc(-c2cnn(C)c2)nc2ccccc12 | Cathepsin K (CTSK, Homo sapiens, UniProt P43235) | enzyme activity |  | 10 µM |  | remaining activity | 101% |
| COc1c(N2CC3CCCNC3C2)c(F)cc2c(=O)c(C(=O)OCc3ccc([N+](=O)[O-])cc3)cn(C3CC3)c12 (stereo not drawn) | nfsB (Escherichia coli K-12, UniProt P38489) | substrate |  | together with: NADH 100 µM |  | initial rate | 0.15 ± 0.005 µM/min |

Some of these lines once more:
| SMILES | target | test | test system | setting | scale | endpoint | result |
| --- | --- | --- | --- | --- | --- | --- | --- |
| O=C(N[C@@H]1c2ccccc2C[C@H]1N1CCCC1)c1ccc(-c2ccnc3[nH]ccc23)nc1 | PRKG1 (Homo sapiens, UniProt Q13976) | binding, competition with immobilised ligand |  | 3 µM |  | remaining binding | 3.1% |
| CC(C)[C@H]1NC(=O)C[C@H]2/C=C/CCSSC[C@@H](NC1=O)C(=O)N[C@H](Cc1cccc3ccccc13)C(=O)NCC(=O)O2 | EPHA8 (Homo sapiens, UniProt P29322) | enzyme activity, inhibitor |  | 10 µM |  | inhibition | 7.7% |
| Cc1cc(Nc2nc(C[C@@]3(C(=O)O)CCN(Cc4cccc(Cl)c4F)[C@H](C)C3)cc(C)c2F)[nH]n1 | CHRM2 | agonist |  | 10 µM |  | activation | -0.14% |
